Assay results gathered from unrelated publications.
Each line is one published result; not all experiments were run side by side. Values joined by “and” are separate records of one study, mostly repeats; a detail may differ. ± marks the error that the study gave. ≈ marks a conversion by molar mass, not a printed value.

Under “urinary clusterin difference”, `CN[C@H](CC(C)C)C(=O)N[C@H]1C(=O)N[C@@H](CC(N)=O)C(=O)N[C@H]2C(=O)N[C@H]3C(=O)N[C@H](C(=O)N[C@H](C(=O)O)c4cc(O)cc(O)c4-c4cc3ccc4O)[C@H](O)c3ccc(c(Cl)c3)Oc3cc2cc(c3O[C@@H]2O[C@H](CO)[C@@H](O)[C@H](O)[C@H]2O[C@H]2C[C@](C)(N)[C@H](O)[C@H](C)O2)Oc2ccc(cc2Cl)[C@H]1O` is recorded as 1930 ng/24 h (Sprague-Dawley rat, male, urine; concentration not given, day 1, bolus dosing; baseline: humanized infusion group).
`Cc1ncc2n1-c1ccc(Cl)cc1C(c1ccccc1F)=NC2` has an AUC(0-inf) of 130 ng·h/mL (healthy men, plasma; oral, 7.5 mg, day 26, arithmetic mean, together with: 14 days post amenamevir).
For `COC(=O)[C@H](C(C)C)N(Cc1ccc(-c2ccccc2-c2nnn[nH]2)cc1)N=O`, mutagenicity read “negative” (Salmonella typhimurium, Escherichia coli; preincubation Ames test; concentration not given, with and without S9).
With `CC[C@@]1(O)C(=O)OCc2c1cc1n(c2=O)Cc2cc3c(CN(C)C)c(O)ccc3nc2-1` the Tmax was 1.78 h (human patients; oral, 8 mg weekly, day 1, median, alone).
For `CN(CCC(Oc1ccc(C(F)(F)F)cc1)c1ccccc1)N=O` (stereo not drawn), mutagenicity read “positive” (Salmonella typhimurium, Escherichia coli; preincubation Ames test; concentration not given, with and without S9).
`O=c1[nH]c(=O)[nH]c(=O)[nH]1` has a serum concentration of 16700 ng/mL and 11300 ng/mL and 10800 ng/mL and 152000 ng/mL and 31100 ng/mL and 41600 ng/mL (LC-MS/MS; pregnant female rat, serum; oral, 1000 mg/kg/day, 10 days).
`C[C@H]1CNCCc2ccc(Cl)cc21` gave a half-life of 1.8 h (male Sprague-Dawley rat, plasma; subcutaneous, 1 mg/kg, single dose).
The tissue uptake of `CC(=O)N[C@H](CCCCNC(=O)C(C)F)C(=O)N[C@@H](CS)C(=O)N[C@@H](CS)C(=O)N[C@@H](CCC(=O)O)C(=O)N[C@@H](Cc1c[nH]cn1)C(=O)N[C@H](Cc1ccccc1)C(=O)N[C@@H](CCCNC(=N)N)C(=O)N[C@@H](Cc1c[nH]c2ccccc12)C(=O)N[C@@H](CS)C(=O)N[C@@H](CCCNC(=N)N)C(=O)N1CCC[C@H]1C(=O)N[C@H](C(N)=O)C(C)C` (stereo partly drawn) [fluorine-18 labelled] is reported as 1.72 ± 0.16 %ID/g (C57BL/6 mice, male, B16-F10 tumour, lung; intravenous, 1 h).
The AUC(0-inf) of `COc1ccsc1CNCC[C@@]1(c2ccccn2)CCOC2(CCCC2)C1` is reported as 23.7 ng·h/mL (healthy human, normal hepatic function, plasma; intravenous, 1 mg single dose, geometric mean).
`N[C@@H](CC(=O)O)C(=O)N[C@@H](CCC(=O)O)C(=O)NCC(=O)N1CCC[C@H]1C(=O)O`: thymus index “no effect” (ICR mouse, tail bleeding; oral, 450 µmol/kg; baseline: vehicle).
The tissue concentration of `c1cc2ccc3cccc4ccc(c1)c2c34` is reported as 16.8 ± 1.8 ng/g (HPLC-fluorescence; Wistar rat, male, heart; oral, 4 mg/kg, 24 h).
For `O[C@H]1CCCN[C@@H]1CCCn1cnc2c(Cl)c(Cl)ccc21`, the half-life was 7.8 h (human, plasma; oral, 500 mg, single dose, healthy volunteers).
`N[C@@H](Cc1ccc(F)cc1)C(=O)O`: “brain uptake clearance Kin” 142 mL/100 g/min (in situ brain perfusion; CF-1 mice, mdr1a(-/-); 1 µM, 60-180 s).
For `CC[C@H](C)[C@H](NC(=O)[C@H](C)NC(=O)[C@H](CCCCN)NC(=O)[C@H](CC(C)C)NC(=O)[C@H](C)NC(=O)[C@@H](NC(=O)[C@H](Cc1c[nH]cn1)NC(=O)[C@H](CC(C)C)NC(=O)[C@@H](NC(=O)[C@@H](NC(=O)[C@H](CCCCN)NC(=O)[C@H](CCCCN)NC(=O)[C@H](C)NC(=O)[C@H](CO)NC(=O)[C@H](CCCCN)NC(=O)[C@H](Cc1ccccc1)NC(=O)[C@@H](NC(=O)[C@H](CCCCN)NC(=O)[C@H](CC(C)C)NC(=O)[C@H](Cc1ccccc1)NC(=O)[C@H](CO)NC(=O)[C@H](CCCCN)NC(=O)[C@H](Cc1c[nH]c2ccccc12)NC(=O)[C@H](CCCCN)NC(C)=O)[C@@H](C)O)[C@@H](C)O)C(C)C)[C@@H](C)O)C(=O)N[C@@H](CO)C(=O)N[C@@H](CO)C(N)=O`, the retention time was 17.4 min (RP-HPLC; Zorbax 300 SB-C8 column; 65 °C).
`CN[C@@](C)(C[18F])C(=O)O` has a tissue uptake of 1.8 ± 0.3 %ID/g (SCID mouse U87 xenograft, muscle; 30 min, post injection).
With `CC1(C)S[C@@H]2[C@H](NC(=O)[C@H](C(=O)O)c3ccsc3)C(=O)N2[C@H]1C(=O)O` the relative error was 1% (rat plasma; 8000 ng/mL, three freeze-thaw cycles; baseline: nominal concentration).
`CNC(C)Cc1ccc2c(c1)OCO2` (racemic) gave a mood rating of 27.3 (visual analog scale, item: Restless; human; oral, 1.5 mg/kg, mean over session, unit not given; baseline: pre-dose baseline).
The solubility of `CC[C@H](NC(C)=O)C(=O)N[C@@H](CCCN)C(=O)N[C@@H](CC(C)C)C(=O)N[C@@H](CCC(N)=O)C(=O)Nc1ccc2c(C)cc(=O)oc2c1` is reported as 5.48 ± 0.72 mM (≈ 3600 µg/mL) (shake-flask HPLC; 1 h, pH 7.2, 37 °C, 5% DMSO, 0.01% Triton X-100).

Repeated from above:
For `COC(=O)[C@H](C(C)C)N(Cc1ccc(-c2ccccc2-c2nnn[nH]2)cc1)N=O`, mutagenicity read “negative” (Salmonella typhimurium, Escherichia coli; preincubation Ames test; concentration not given, with and without S9).
`C[C@H]1CNCCc2ccc(Cl)cc21` gave a half-life of 1.8 h (male Sprague-Dawley rat, plasma; subcutaneous, 1 mg/kg, single dose).
The solubility of `CC[C@H](NC(C)=O)C(=O)N[C@@H](CCCN)C(=O)N[C@@H](CC(C)C)C(=O)N[C@@H](CCC(N)=O)C(=O)Nc1ccc2c(C)cc(=O)oc2c1` is reported as 5.48 ± 0.72 mM (≈ 3600 µg/mL) (shake-flask HPLC; 1 h, pH 7.2, 37 °C, 5% DMSO, 0.01% Triton X-100).
